Assay results from different studies.
Each line is one published result; not all experiments were run side by side. Values joined by “and” are separate records of one study, mostly repeats; a detail may differ. ± gives the spread as reported.
NADH dehydrogenase [ubiquinone] iron-sulfur protein 7, mitochondrial/NADH dehydrogenase [ubiquinone] iron-sulfur protein 2, mitochondrial/MT-ND1: NADH dehydrogenase [ubiquinone] iron-sulfur protein 7, mitochondrial/NADH dehydrogenase [ubiquinone] iron-sulfur protein 2, mitochondrial/MT-ND1 (Homo sapiens, UniProt O75251+O75306+P03886)
FFAR4: Free fatty acid receptor 4 (FFAR4, Homo sapiens, UniProt Q5NUL3)
Maoa: Amine oxidase [flavin-containing] A (Maoa, Rattus norvegicus, UniProt P21396)
Kir3.1/Kir3.2: Kir3.1/Kir3.2 (Homo sapiens, UniProt P48051+P48549)
TRPM8: Transient receptor potential cation channel subfamily M member 8 (TRPM8, Homo sapiens, UniProt Q7Z2W7)
GAP50: Glideosome-associated protein 50 (GAP50, Plasmodium falciparum, UniProt Q8I2X3)

CC1=C(/C=C/C(C)=C/C=C/C(C)=C/C=O)C(C)(C)CCC1 — relative kon (Rhodopsin (RHO, Bos taurus, UniProt P02699, G270L); retinal entry, Trp FRET; lipid bicelles; 28 °C, G270L mutant; relative to: wild-type rhodopsin): 1.09 ± 0.05
Nc1ccc(C(=O)O)cc1 — current density (BEST1, with wild-type BEST1 (Homo sapiens, UniProt O76090, A10T); whole-cell patch clamp; HEK293 co-expressing WT and A10T mutant; concentration not given, membrane potential -60 mV): -18.1 pA/pF and -12.5 pA/pF and -8.44 pA/pF and -5.77 pA/pF and -16.8 pA/pF and -29.5 pA/pF
O=C(COP(=O)(O)O)[C@@H](O)[C@H](O)[C@H](O)COP(=O)(O)O — thermal stability ratio (Large ribosomal subunit protein uL4 (Homo sapiens, UniProt P36578); thermal proteome profiling, refers to: RPL4; HepG2 cell lysate; concentration not given, 57 over 37 °C, mean; relative to: compound over control): 0.733
NC(=O)NOCCCCCCCCCCCC[P+](c1ccccc1)(c1ccccc1)c1ccccc1.O=C([O-])C(F)(F)F — oxygen consumption rate (NADH dehydrogenase [ubiquinone] iron-sulfur protein 7, mitochondrial/NADH dehydrogenase [ubiquinone] iron-sulfur protein 2, mitochondrial/MT-ND1; complex I-dependent respiration, Seahorse XF96; HCT-116; 2.5 µM, 24 h; relative to: control): 33.9 ± 11.3%
CCNc1cc(=O)[nH]c(=O)[nH]1 — agonist effect (FFAR4; β-arrestin recruitment; CHO; 10 µM; relative to: 30 µM TUG-891): 1%
C=CC(=O)N1CCC(COCC(=O)N2CCN(c3nc(-c4cnc(N)nc4C(F)F)nc(N4CCOC[C@@H]4C)n3)CC2)CC1 — remaining binding (STK17A (Homo sapiens, UniProt Q9UEE5); KINOMEscan; 1 µM): 77%
C=CC(=O)N1CCC(C(=O)NCC(=O)N2CCN(c3nc(-c4cnc(N)nc4C(F)F)nc(N4CCOCC4)n3)CC2)CC1 — remaining binding (MAP3K12 (Homo sapiens, UniProt Q12852); KINOMEscan; 1 µM): 97%
Cc1ccc(C(=O)Nc2ccc3ccccc3c2)o1 — peak current ratio Ip2/Ip1 (Otop1 (Mus musculus, UniProt Q80VM9); proton current, whole-cell patch clamp; cells expressing mouse Otop1; 50 µM, pH 6.0): 3.5 and 3.32 and 2.8 and 3.15 and 2.98
Nc1nc2c(F)cccc2[nH]1 — Hill coefficient (HVCN1 (Homo sapiens, UniProt Q96D96, F150A); proton current, inhibitor, inside-out patch clamp): 0.93 ± 0.03
NCc1ccccc1 — log Kd (Maoa; pKa-corrected): -5.2 M
CCc1cc(NC(=O)COc2ccc(Cl)cc2Cl)n(CC(F)(F)F)n1 — Emax (Kir3.1/Kir3.2; thallium flux, activator; HEK293; relative to: standard compound): 90%
CC(C)(C)CCNc1cc(=O)[nH]c(=O)[nH]1 — inhibition (FFAR4; antagonist, β-arrestin recruitment; CHO cells; 10 µM, together with: 4 µM TUG-891): 18 ± 5%
COc1ccc(OC)c2c(=S)c3ccccc3[nH]c12 — remaining activity (TRPM8; antagonist; HEK293; 5 µM; relative to: control): 104 ± 2.11%
Cc1ccccc1C(=O)N1NC(=Nc2ccccc2)SC1(C)C — koff (GAP50; binding, surface plasmon resonance; 1:1 binding model): 0.000946 s⁻¹
Nc1ncnc2c1ncn2[C@@H]1O[C@H](COP(=O)(O)CP(=O)(O)OP(=O)(O)O)[C@@H](O)[C@H]1O — calcium influx (P2X purinoceptor 1 (P2RX1, Homo sapiens, UniProt P51575, E122A); calcium influx; 10 nM; relative to: ionomycin response): 0.521%
Nc1ncnc2c1ncn2[C@@H]1O[C@H](CO[P@](=O)(O)O[P@](=O)(O)O[P@@](=O)(O)S)[C@@H](O)[C@H]1O — ΔG (GUK1 (Homo sapiens, UniProt Q16774, R148A); binding, ITC): -5.31 kcal/mol
CCNC(=O)/C=C/c1cccc(Br)c1 — remaining transport activity (SLC6A19 (Homo sapiens, UniProt Q695T7); inhibitor, FLIPR membrane potential; CHO-BC cells; 0.01 µM, unit not given; relative to: no inhibitor): 0.905
CCCCCCNc1[nH]c(=O)[nH]c(=O)c1N=O — activation (FFAR4; agonist, β-arrestin recruitment; CHO cells; 10 µM): 1 ± 1%
C[C@]12CCC(=O)C=C1CC[C@@H]1[C@@H]2[C@@H](O)C[C@@]2(C)[C@H]1CC[C@]2(O)C(=O)CO — maximal response (NR3C2 (Homo sapiens, UniProt P08235); reporter gene, agonist; relative to: baseline): 73 fold
O=C(NCc1ccc(CNS(=O)(=O)c2ccccc2)cc1)c1ccccc1 — EC (CXCR4 (Homo sapiens, UniProt P61073); binding, inhibitor, competitive binding; MDA-MB-231; together with: biotinylated TN14003): 1 nM
c1ccc(C(NCc2cccnc2)(c2ccccc2)c2ccccc2)cc1 — deactivation time constant (KCNQ1 (Homo sapiens, UniProt P51787); whole-cell patch clamp; 100 pM, at -120 mV): 87 ± 22 ms
Cc1nc(CSc2nc(SCc3ccc(C(C)C)cc3)nc(=O)[nH]2)cs1 — relaxed DNA (TOP2A (Homo sapiens, UniProt P11388); DNA relaxation; 62.5 µM, replicate 1): 99.3%
CCCC(CCC)c1nc2c(Nc3ccc(C#CCCCCCCCCN)cc3)nc3ccccc3c2[nH]1 — off-target affinity (CHRM2 (Homo sapiens, UniProt P08172); PDSP screening): inactive
N[C@@](CCCCB(O)O)(C(=O)O)C1CCN(Cc2ccc(Cl)c(Cl)c2)CC1 (racemic) — binding stoichiometry (Arginase (Schistosoma mansoni, UniProt Q6WVP6); isothermal titration calorimetry; concentration not given): 2.29 ± 0.02
O=C(ON1C(=O)CCC1=O)c1cc(C(F)(F)F)cc(C(F)(F)F)c1 — kobs (CD209 antigen (CD209, Homo sapiens, UniProt Q9NNX6); covalent labelling, intact protein MS; 10 µM): 0.0573 min⁻¹
CC(=C/C(=O)O)/C=C/C=C(\C)C1C=C2C(C)(C)CCCC2(C)O1 (stereo not drawn) — plasma membrane localization (Rhodopsin (RHO, Homo sapiens, UniProt P08100, T17M); immunostaining, refers to: opsin; COS-7 transfected; 30.00 µM, unit not given; relative to: surface over total stained cells): 0.96
O=c1cc(NCCc2ccc(Br)cc2)[nH]c(=O)[nH]1 — inhibition (FFAR4; antagonist, β-arrestin recruitment; CHO cells; 10 µM, together with: 4 µM TUG-891): 17 ± 3%
NC(=O)NOCCCCCCCCCCCCCCCCCCCC[P+](c1ccccc1)(c1ccccc1)c1ccccc1.O=C([O-])C(F)(F)F — oxygen consumption rate (NADH dehydrogenase [ubiquinone] iron-sulfur protein 7, mitochondrial/NADH dehydrogenase [ubiquinone] iron-sulfur protein 2, mitochondrial/MT-ND1; complex I-dependent respiration, Seahorse XF96; HCT-116; 0.5 µM, 24 h; relative to: control): 63.6 ± 7.46%
CN1CCN(c2cc(-c3ccncc3)c(-c3ccc4ccccc4c3)nn2)CC1 — activation (PTH2R (Homo sapiens, UniProt P49190); agonist, FLIPR; 12.5 µM): 1.5%
CCCCCCCC/C=C\CCCCCCCC(=O)NCCc1ccc(O)c(O)c1 — maximal open probability (Trpv1 (Mus musculus, UniProt Q704Y3, S511T); ion current, agonist, whole-cell patch clamp; S511T; relative to: 3 mM 2-APB): 0.8 ± 0.12
CC[C@@H]1[C@H](F)C(=O)N[C@@H]1COc1nccc2cc(C(N)=O)c(OC)cc12 — inhibition (CAMKK2 (Homo sapiens, UniProt Q96RR4); ATP-site probe binding, ActivX profiling; THP-1 cell lysate; 0.2 mM, Lys1 site): -5.9%
[H]/N=C(/N)NCC(=O)O — normalised MST signal (SLC6A6 (Homo sapiens, UniProt P31641, L306A); binding, microscale thermophoresis; 488 nM, room temperature, together with: 50 nM labelled protein; higher = more binding): -0.0183
CCC(=O)NS(=O)(=O)c1ccc(-c2c(-c3ccccc3)noc2C)cc1 — activation (Nuclear receptor subfamily 4 group A member 2 (Homo sapiens, UniProt P43354); reporter gene, full-length homodimer NurRE reporter; 50 µM; relative to: vehicle): 0.53 fold
CC(C)(C)CNc1cc(=O)[nH]c(=O)[nH]1 — agonist effect (FFAR4; β-arrestin recruitment; CHO; 10 µM; relative to: 30 µM TUG-891): 1%
c1ccc(Oc2ccc(-c3cc(C4CCOCC4)[nH]n3)cc2)cc1 — kon (GAP50; binding, surface plasmon resonance; 1:1 binding model): 1360 M⁻¹ s⁻¹
O=C1O/C(=C\c2cc(F)ccc2OCCN2CC[C@@H](F)C2)c2cc(Cc3cccc(F)c3)[nH]c(=O)c21 — ligand efficiency (Dual specificity calcium/calmodulin-dependent 3',5'-cyclic nucleotide phosphodiesterase 1C, isoform PDE1C2 (PDE1C, Homo sapiens, UniProt Q14123); enzyme activity, inhibitor; together with: 3H-cGMP substrate): 0.32
NC(=O)c1cccc(-c2cc(Nc3ccc(OC(F)(F)F)cc3)ncn2)c1 — remaining activity (TRPM8; antagonist; HEK293; 5 µM; relative to: control): 99.1 ± 7.21%
CC(C)CNc1cc(=O)[nH]c(=O)[nH]1 — inhibition (FFAR4; antagonist, β-arrestin recruitment; CHO cells; 10 µM): 20 ± 2%
OC[C@H]1OC(O)[C@H](O)[C@@H](O)[C@@H]1O (stereo partly drawn) — maximal inhibition (Hexokinase-3 (HK3, Homo sapiens, UniProt P52790); enzyme activity, substrate inhibitor, coupled G6PDH): ~50%
Cc1cc(NCCc2ccccc2)nc(N=C(N)Nc2ccc(Cl)cc2)n1 — kon (GAP50; binding, surface plasmon resonance; 1:1 binding model): 3260 M⁻¹ s⁻¹
NCCCCCC(=O)O — thermal shift (uncharacterized protein (Pelagibacter ubique, UniProt Q4FKZ8); differential scanning fluorimetry; Candidatus Pelagibacter ubique; in-house screen): 2.07 °C
COC(=O)c1ccc(NC(=O)COc2cccc(Cl)c2Cl)s1 — activity (Kir3.1/Kir3.2; activator, thallium flux; HEK293; concentration not given): inactive
NC(=O)NOCCCCCCCCCC[P+](c1ccccc1)(c1ccccc1)c1ccccc1.O=C([O-])C(F)(F)F — oxygen consumption rate (NADH dehydrogenase [ubiquinone] iron-sulfur protein 7, mitochondrial/NADH dehydrogenase [ubiquinone] iron-sulfur protein 2, mitochondrial/MT-ND1; complex I-dependent respiration, Seahorse XF96; HCT-116; 10 µM, 24 h; relative to: control): 53.4 ± 4.96%
NN=C1NC(=O)C2(CCc3ccccc32)C(=O)N1 (stereo not drawn) — Emax (GABA-A receptor; alpha-1/beta-3/gamma-2 (Homo sapiens, UniProt P14867+P18507+P28472); 300 µM): -2%
O=c1cc(NCCOc2ccccc2)[nH]c(=O)[nH]1 — activation (FFAR4; agonist, β-arrestin recruitment; CHO cells; 10 µM): 0 ± 1%
CC1=NN(c2cc(Cl)ccc2Cl)C(=O)C1=NNc1ccc(S(N)(=O)=O)cc1 — inhibition (Alpha-amylase (Bos taurus, UniProt Q3MHH8); enzyme activity, inhibitor, glucose oxidase; 50 µg/mL, together with: dextrin): 17.3%
Cc1ccc(CCNc2cc(=O)[nH]c(=O)[nH]2)cc1 — inhibition (FFAR4; antagonist, β-arrestin recruitment; CHO cells; 10 µM): 15 ± 6%
NCc1ccc(Br)cc1 — kcat (Maoa; substrate; rat; pH 9.0, α,α-protio substrate): 171 ± 1.4 min⁻¹
Cc1cc2ncc(-c3ccccc3)nc2cc1C — remaining activity (TRPM8; antagonist; HEK293; 5 µM; relative to: control): 101 ± 3.95%
COc1cc2c(cc1O)[C@@H](Cc1ccc(O)cc1)[N+](C)(C)CC2 — koff (GAP50; binding, surface plasmon resonance; 1:1 binding model): 0.0116 s⁻¹
Nc1ncnc2c1ncn2[C@@H]1O[C@H](COP(=O)(O)OP(=O)(O)OP(=O)(O)O)[C@@H](O)[C@H]1O — Km (CKMT1A (Homo sapiens, UniProt P12532, E265D); substrate, ADP-Glo luminescence; pH 8.5, forward reaction, E227D mutant, together with: second substrate in excess): 80 ± 10 µM

A few entries again:
CCc1cc(NC(=O)COc2ccc(Cl)cc2Cl)n(CC(F)(F)F)n1 — Emax (Kir3.1/Kir3.2; thallium flux, activator; HEK293; relative to: standard compound): 90%
NN=C1NC(=O)C2(CCc3ccccc32)C(=O)N1 (stereo not drawn) — Emax (GABA-A receptor; alpha-1/beta-3/gamma-2 (Homo sapiens, UniProt P14867+P18507+P28472); 300 µM): -2%
CCNC(=O)/C=C/c1cccc(Br)c1 — remaining transport activity (SLC6A19 (Homo sapiens, UniProt Q695T7); inhibitor, FLIPR membrane potential; CHO-BC cells; 0.01 µM, unit not given; relative to: no inhibitor): 0.905
N[C@@](CCCCB(O)O)(C(=O)O)C1CCN(Cc2ccc(Cl)c(Cl)c2)CC1 (racemic) — binding stoichiometry (Arginase (Schistosoma mansoni, UniProt Q6WVP6); isothermal titration calorimetry; concentration not given): 2.29 ± 0.02
CC(C)(C)CNc1cc(=O)[nH]c(=O)[nH]1 — agonist effect (FFAR4; β-arrestin recruitment; CHO; 10 µM; relative to: 30 µM TUG-891): 1%
CC1=C(/C=C/C(C)=C/C=C/C(C)=C/C=O)C(C)(C)CCC1 — relative kon (Rhodopsin (RHO, Bos taurus, UniProt P02699, G270L); retinal entry, Trp FRET; lipid bicelles; 28 °C, G270L mutant; relative to: wild-type rhodopsin): 1.09 ± 0.05
